# Measured values collected from several papers.
# Protocols differ between the studies behind these lines.
# Cell line: CCRF-CEM
SMILES,test,setting,measurement,result
Cc1ccc(-c2cc3ccccc3c(N)n2)cc1,"annexin V-FITC/PI flow cytometry, measured: annexin V+ PI-","5.0 µM, 72 h",early apoptotic cells,10.2%
O=C(Nc1nnc2n3c(=S)[nH][nH]c3nc(-c3ccc(Cl)cc3)c1-2)c1ccccc1,NCI60 SRB,10 µM,growth percent,91.3%
CCCC(CCC)C(=O)OCc1cn(-c2c3ccccc3nc3ccccc23)nn1,NCI60 single dose,10 µM,growth,76.7%
Cn1cncc1C1=CN(c2ncnc3[nH]cnc23)CCS1,,leukaemia cell line,TGI,102 µM
CCCN1CCN(c2ccc3[nH]c(-c4ccc5[nH]c(-c6ccc(C(F)(F)F)cc6)nc5c4)nc3c2)CC1,"cell growth, NCI-60 SRB","10 µM, 48 h",growth percent,-21.1%
Cc1cc(=O)[nH]n1-c1nc(-c2ccc(Cl)cc2)c2c(NC(=O)c3ccccc3)nnc-2[nH]1,NCI60 SRB,10 µM,growth percent,87.2%
CCCN1CCN(c2ccc3nc(-c4ccc5nc(-c6cc(OC)ccc6OC)[nH]c5c4)[nH]c3c2)CC1,"cell growth, NCI-60 SRB","10 µM, 48 h",growth percent,3.98%
CCN(CC)c1ccc(C=NNC(=O)CSc2nc3ccccc3c(=O)n2Cc2ccc(S(N)(=O)=O)cc2)c(O)c1,cell growth,NCI five-dose screen,TGI,> 100 µM
Cc1cc(=O)[nH]c(=O)n1Cc1cn(-c2cc3ccccc3oc2=O)nn1,NCI60 single dose,10 µM,growth,102%
CCCCN1CCN(c2ccc3[nH]c(-c4ccc5[nH]c(-c6ccc(OCC)cc6)nc5c4)nc3c2)CC1,"cell growth, NCI-60 SRB","10 µM, 48 h",growth percent,20.5%
O=C(Nc1nnc2n3c(nc(-c4ccc(Cl)cc4)c1-2)SCC3=O)c1ccccc1,NCI60 SRB,10 µM,growth percent,98.7%
O=C1NC(c2ccccc2)(c2ccccc2)C(=O)N1Cc1cn(-c2c3ccccc3nc3ccccc23)nn1,NCI60 single dose,10 µM,growth,64.6%
CCOC(=O)CSc1nc(-c2ccc(Cl)cc2)c2c(NC(=O)c3ccccc3)nnc-2[nH]1,NCI60 SRB,10 µM,growth percent,98.5%
CCCN1CCN(c2ccc3[nH]c(-c4ccc5[nH]c(-c6cc(OC)c(OC)c(OC)c6)nc5c4)nc3c2)CC1,"cell growth, NCI-60 SRB","10 µM, 48 h",growth percent,41.2%
Nc1nc(S)nc(O)c1N=Cc1cn(-c2ccccc2)nc1-c1ccc(Cl)cc1,annexin V-FITC/PI flow cytometry,"1000 µM, 24 h",total apoptotic cells,38.5%
O=c1ccn(Cc2cn(-c3c4ccccc4nc4ccccc34)nn2)c(=O)[nH]1,NCI60 single dose,10 µM,growth,83.9%
CCCN1CCN(c2ccc3[nH]c(-c4ccc5[nH]c(-c6ccc(OCC)c(OCC)c6)nc5c4)nc3c2)CC1,"cell growth, NCI-60 SRB","10 µM, 48 h",growth percent,5.88%
O=C(Nc1nnc2[nH]c(=S)[nH]c(-c3ccc(Cl)cc3)c1-2)c1ccccc1,NCI60 SRB,10 µM,growth percent,94.8%
COc1ccc(OC)c(-c2nc3ccc(-c4nc5ccc(N6CCN(C)CC6)cc5[nH]4)cc3[nH]2)c1,"cell growth, NCI-60 SRB","10 µM, 48 h",growth percent,86.3%
S=C([S][Au-][P+](CCCCCC[P+]([Au-][S]C(=S)n1cccn1)(c1ccccc1)c1ccccc1)(c1ccccc1)c1ccccc1)n1cccn1,"cell growth, NCI-60 screen",leukaemia,log TGI,-5.3 log10 M
